{"data": "Measured values pooled from the literature", "CNR1": "Cannabinoid receptor 1 (CNR1, Homo sapiens, UniProt P21554)", "note": "Numbers after ± are the reported error.", "sequence of UniProt P21554 (whole entry, unmodified, looked up)": "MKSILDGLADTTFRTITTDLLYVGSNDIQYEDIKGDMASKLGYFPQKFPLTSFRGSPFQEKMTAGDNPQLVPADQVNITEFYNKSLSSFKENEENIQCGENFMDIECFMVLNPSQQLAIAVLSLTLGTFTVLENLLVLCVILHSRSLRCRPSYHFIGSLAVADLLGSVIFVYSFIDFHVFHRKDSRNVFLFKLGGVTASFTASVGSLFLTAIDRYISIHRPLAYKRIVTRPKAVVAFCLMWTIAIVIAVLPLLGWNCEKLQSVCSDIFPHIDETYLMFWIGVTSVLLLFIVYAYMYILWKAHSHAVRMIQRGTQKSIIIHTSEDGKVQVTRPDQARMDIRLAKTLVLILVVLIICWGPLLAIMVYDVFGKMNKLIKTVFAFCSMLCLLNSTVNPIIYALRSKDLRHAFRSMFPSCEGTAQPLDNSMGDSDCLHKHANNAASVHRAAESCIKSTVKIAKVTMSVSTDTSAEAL"}
{"Compound": "C/C(=N\\OCCCN1CCCCC1)c1ccc(C(F)(F)F)cc1", "target": "CNR1", "assay": "agonist, cAMP", "conditions": "10 µM", "measurement": "activation", "result": "0.56%"}
{"Compound": "O=[N+]([O-])CC(c1ccco1)c1c(-c2ccccc2)[nH]c2ccccc12 (stereo not shown)", "target": "Cannabinoid receptor 1, with Gz (CNR1, Homo sapiens, UniProt P21554)", "assay": "Gz dissociation, agonist, BRET", "measurement": "Emax", "result": "31.3 ± 6.26%"}
{"Compound": "N[C@H](C(=O)N1CCCC1)C1CCN(c2nccc3c(-c4ncc(Cl)cc4Cl)cccc23)CC1", "target": "CNR1", "assay": "functional response, agonist", "conditions": "10 µM", "measurement": "response", "result": "-61%"}
{"Compound": "Cc1ccc2c(n1)c(-c1cccc(S(C)(=O)=O)c1)c(C)n2C/C(F)=C/CN", "target": "CNR1", "assay": "ligand displacement, radioligand", "conditions": "10 µM", "measurement": "inhibition", "result": "11%"}
{"Compound": "COC(=O)[C@@H](NC(=O)c1nn(Cc2ccc(F)cc2)c2cc(OCCCCNC(N)=O)ccc12)C(C)(C)C", "target": "Cannabinoid receptor 1, with Gi3 (CNR1, Homo sapiens, UniProt P21554)", "assay": "GTP turnover, agonist, measured: Gi3 Gα subtype", "measurement": "maximal efficacy", "result": "128%"}
{"Compound": "C[C@@H]1COCCN1c1nc(NCc2cccnc2C(F)(F)F)c2cccnc2n1", "target": "CNR1", "assay": "binding", "conditions": "CEREP panel", "measurement": "IC50", "result": "> 100 µM"}
{"Compound": "CCCCCn1ccc(C(=O)NC(C)(C)c2ccc(NC(C)=O)cc2)n1", "target": "CNR1", "assay": "calcium signal, agonist, fluorescence", "measurement": "Emax", "result": "78%"}
{"Compound": "Cc1cc(Nc2nc(C[C@@]3(C(=O)O)CCN(Cc4cccc(Cl)c4F)[C@H](C)C3)cc(C)c2F)[nH]n1", "target": "CNR1", "assay": "inhibitor", "conditions": "10 µM", "measurement": "inhibition", "result": "-2.07%"}
{"Compound": "CCCCCn1cc(C(=O)c2cccc3ccccc23)c2ccccc21", "target": "CNR1 (Homo sapiens, UniProt P21554, F170A)", "assay": "Gαi1 engagement, agonist, BRET", "scale": "baseline: reference agonist at wild-type CB1", "measurement": "Emax", "result": "37.7 ± 4.7%"}
{"Compound": "C[C@H](NCc1ccc(-c2ccc(C(F)(F)F)cc2)cc1)C(N)=O", "target": "CNR1", "assay": "radioligand binding, SafetyScreen panel", "conditions": "1 µM, species human, added: 2.0 nM [3H]SR141716A", "measurement": "inhibition", "result": "-5%"}
{"Compound": "Cc1sc2c(c1C)C(c1ccc(Cl)cc1)=NC(CC(=O)OC(C)(C)C)c1nnc(C)n1-2 (stereo not shown)", "target": "CNR1", "assay": "ligand displacement, radioligand", "conditions": "1 µM", "measurement": "remaining binding", "result": "100%"}
{"Compound": "CN[C@@H]1[C@H](O)[C@H](NC)[C@H]2O[C@]3(O)[C@H](O[C@@H]2[C@H]1O)O[C@H](C)C[C@H]3NC(=O)Cc1cc(Cl)ccn1", "target": "CNR1", "assay": "ligand displacement, radioligand", "conditions": "10 µM", "measurement": "inhibition", "result": "-7%"}
{"Compound": "Cc1ccc2c(C(C[N+](=O)[O-])c3cccs3)c(-c3ccccc3)[nH]c2c1 (stereo not shown)", "target": "CNR1 (Homo sapiens, UniProt P21554, N393A)", "assay": "G protein activation, agonist", "conditions": "100%", "measurement": "Emax", "result": "95.9 ± 3.25%"}
{"Compound": "CCCCCn1ccc(C(=O)NC(C)(C)c2ccccc2C)n1", "target": "CNR1", "assay": "calcium signal, agonist, fluorescence", "measurement": "Emax", "result": "42%"}
{"Compound": "CS(C)(=O)=Nc1ccc(-c2ccc(-c3nc4cc(O[C@@H]5CO[C@H]6[C@@H]5OC[C@H]6O)[nH]c4cc3F)cc2)cc1", "target": "CNR1", "assay": "calcium signal, antagonist", "conditions": "10 µM", "measurement": "inhibition", "result": "4%"}
{"Compound": "COc1ccccc1C(C[N+](=O)[O-])c1c(-c2ccccc2)[nH]c2ccccc12 (stereo not shown)", "target": "CNR1 (Homo sapiens, UniProt P21554, P394A)", "assay": "Gαi1-γ2 dissociation, BRET", "measurement": "Emax", "result": "91.6 ± 3.64%"}
{"Compound": "CCCCCn1ccc(C(=O)NC(C)(C)c2ccccc2)n1", "target": "CNR1", "assay": "calcium signal, agonist, fluorescence", "measurement": "Emax", "result": "61%"}
{"Compound": "CCc1nnc(-c2c(OC)cc(-c3cnc4cc(-c5cnn(C)c5)ccn34)cc2OC)o1", "target": "CNR1", "assay": "agonist radioligand, radioligand binding", "conditions": "10 µM, SafetyScreen44 CB1", "measurement": "inhibition", "result": "-25%"}
{"Compound": "CCCCCn1ccc(C(=O)NC(C)(C)c2ccc(CN)cc2)n1", "target": "CNR1", "assay": "calcium signal, agonist, fluorescence", "measurement": "Emax", "result": "56%"}
{"Compound": "COC(=O)[C@@H](NC(=O)c1nn(Cc2ccc(F)cc2)c2cc(OCCCCNC(=N)N)ccc12)C(C)(C)C", "target": "Cannabinoid receptor 1, with Goa (CNR1, Homo sapiens, UniProt P21554)", "assay": "GTP turnover, agonist, measured: Goa Gα subtype", "measurement": "maximal efficacy", "result": "118%"}
{"Compound": "CC(C)[C@H](NC(=O)c1ccn(Cc2ccc(F)cc2)n1)C(N)=O", "target": "CNR1", "assay": "calcium signal, agonist, fluorescence", "measurement": "Emax", "result": "96%"}
{"Compound": "Cc1cc(-c2ccc3ccccc3c2)nnc1NCCN1CCN(C)CC1", "target": "CNR1", "assay": "antagonist", "conditions": "concentration not given", "measurement": "antagonist activity", "result": "negative"}
{"note": "A few entries again:"}
{"Compound": "N[C@H](C(=O)N1CCCC1)C1CCN(c2nccc3c(-c4ncc(Cl)cc4Cl)cccc23)CC1", "target": "CNR1", "assay": "functional response, agonist", "conditions": "10 µM", "measurement": "response", "result": "-61%"}
{"Compound": "Cc1ccc2c(n1)c(-c1cccc(S(C)(=O)=O)c1)c(C)n2C/C(F)=C/CN", "target": "CNR1", "assay": "ligand displacement, radioligand", "conditions": "10 µM", "measurement": "inhibition", "result": "11%"}
{"Compound": "COC(=O)[C@@H](NC(=O)c1nn(Cc2ccc(F)cc2)c2cc(OCCCCNC(N)=O)ccc12)C(C)(C)C", "target": "Cannabinoid receptor 1, with Gi3 (CNR1, Homo sapiens, UniProt P21554)", "assay": "GTP turnover, agonist, measured: Gi3 Gα subtype", "measurement": "maximal efficacy", "result": "128%"}
